# Results of several laboratories.
# Several values in a cell are separate wells, animals, samples, runs or records. ± marks the error that the study gave.
Compound,cell line,test,test system,setting,how to read,endpoint,result
COc1cnc2cccc(N3CCc4c(cc(Cn5ccnc5C)cc4-c4cn(C)nc4C(F)(F)F)C3=O)c2c1,SW480,"cell growth, inhibitor",,120 h,,EC50,19 µM
Cc1cccc(-c2[nH]c(CNc3ccccc3F)nc2-c2ccc3ncnn3c2)n1,RPMI-8226,"flow cytometry, refers to: CD9",,concentration not given,baseline: comparator compound alone,surface marker level,151%
CCn1cc(-c2cc(Cn3ccoc3=N)cc3c2CCN([C@@H](C)c2cc(OC)ccn2)C3=O)c(C(F)(F)F)n1,HEC-251,"cell growth, inhibitor",,120 h,,EC50,> 30 µM
Cc1nc(N(Cc2ccccc2)c2ccc3c(c2)/C(=C/c2ccccc2)C(=O)N3Cc2ccccc2)c2ccccc2n1 (mixture of isomers),LLC,,,"2.0 µM, 24 h",,wound healing rate,14.1%
COC(=O)N[C@@H](C)CNc1nccc(-c2cn(C(C)C)nc2-c2cc(Cl)cc(NS(C)(=O)=O)c2F)n1,SK-MEL-239 C4 (p61 BRAF V600E),"ERK phosphorylation, Western blot",,1 h,,IC75,0.385 µM
CCCCCCCCCCCCCCC/C(NCc1ccccc1)=C1/C(=O)OC(CO)C1=O (stereo not shown),G2-synchronized tsFT210 cells,flow cytometry,,"5 µM, 4 h, 32 °C, release from G2 arrest",,G2/M phase cells,24.4%
O=P1(c2ccccc2)CCCCC1,SW480,MTT,,72 h,baseline: IC50 HaCaT over IC50 SW480,selectivity index,1
CSc1cc(Oc2ccnc3[nH]c(=O)cnc23)ccc1NC(=O)Nc1cc(C(C)(C)C)nn1-c1ccccc1,patient-derived cell line clone A,"RPPA, refers to: mTOR phosphosite 2448",human,"1 µM, 4 h",baseline: DMSO,phospho/total ratio,0.78
CCCCc1nc(Cl)c(CO)n1Cc1ccc(-c2ccccc2-c2nn[nH]n2)cc1,human PBMC,"RNA-seq, refers to: FPR2 mRNA",,"10 µg/mL, 24 h",baseline: untreated control,log2 fold change,1.7
CC/C(=N\NC(=O)NCc1cccc(O)c1)c1ccc(O)c(C)c1O,SK-OV-3,Western blot,,"10 µM, 3 h, 3D gellan gum culture, unit not given",baseline: DMSO,TAZ band intensity,0.09 ± 0.04
O=C1N=C(N2CCCCC2)S/C1=C\c1ccc(O)cc1,NG108-cl,"clomeleon fluorescence, refers to: intracellular chloride reduction",,5 h,,EC50,inactive
Cn1cc(-c2ccc(-c3cncc(Cl)c3N3CCC4(CCNC4=O)CC3)cc2)cn1,COLO 205,"gene expression, microarray, refers to: IER5 mRNA",,"concentration not given, 2 h",baseline: untreated cells,log2 fold change,3.33
C=Cc1c2[n-]c(c1C)/C=c1\[n-]/c(c(C)c1C=C)=C\c1[n-]c(c(CCC(=O)O)c1C)/C=c1\[n-]c(c(C)c1CCC(=O)O)=C2.[Sn+4],SH-SY5Y,"RNA-seq, refers to: XYLT1 mRNA",,"5 µM, 5 h",baseline: untreated cells,fold change,2.1
O=C(C[C@@H](C(F)F)n1ccc(F)n1)N1CCC(O)(Cn2cnc3c(cnn3-c3ccc(F)cc3)c2=O)CC1,CHP-212 parental (wild-type USP7),annexin V-PI flow cytometry,,"1 µM, 48 h",,early apoptotic cells (annexin V+/PI-),17.4% and 16.1% and 19.4%
Cn1cnc2c1c(=O)n(CC(=O)Nc1c(Cl)cccc1Cl)c(=O)n2C,Vero,MTT,,31.25 µg/mL,,cytotoxicity,0.256%
COc1cccc2c1C(=O)c1c(O)c3c(c(O)c1C2=O)C[C@@](O)(C(=O)CO)C[C@@H]3O[C@H]1C[C@H](N)[C@H](O)[C@H](C)O1,Vero,MTT,,"100 µM, 48 h",,growth inhibition,15.4 ± 1.91%
N#Cc1sc2nc(-c3ccccc3)cc(C(F)(F)F)c2c1N,LDR,"silenced CMV-GFP reporter derepression, qHTS",,,,efficacy,47%
CCCCS(=N)(=O)CCC(N)C(=O)O (stereo not shown),OVCAR-5,"LC-ESI-MS/MS, refers to: glutathione",,"40 µM, 12 h",baseline: untreated,remaining GSH,2.1%
O=C1c2ccncc2C(=O)c2c1[nH]c1ccccc21,PAH hPASMC,"mitochondrial fission, inhibitor",,,,minimum effective concentration,0.1 µM
CCCN1CCN(c2ccc3nc(-c4ccc5nc(-c6cc(OC)ccc6OC)[nH]c5c4)[nH]c3c2)CC1,SR,SRB,,"10 µM, 48 h",,growth percent,-25.6%
Nc1cccc2c1C(=O)N(C1CCC(=O)NC1=O)C2=O (stereo not shown),MM1.S,XTT,,0.4 µM,baseline: untreated,viability,49%
CC#CC(=O)N1CC[C@@H](n2cc(-c3ccc(Oc4c(F)cccc4F)cc3)c3c(N)n[nH]c(=O)c32)C1,REC-BTK^KO-OE,cell growth,,72 h,,GI50,3.82 µM
CC(C)NCC(O)c1ccc(O)c(O)c1 (stereo not shown),mouse ventricular cardiomyocytes,,,"dose not given, 0.439 s",,sarcomere length,1.68 µm
Cc1cc(NC(=O)C2CCCN(S(=O)(=O)c3cccc4nonc34)C2)ccc1Br (stereo not shown),LDR,"silenced CMV-GFP reporter derepression, qHTS",,,,efficacy,63%
CCc1cnc(N2CCC(c3nc(COc4ccc(-n5cnnn5)cc4)cs3)CC2)nc1,HEK293T,"RNA-seq, refers to: CARS mRNA",,"10 µM, 6 h",baseline: vehicle,log2 fold change,0.384
Cc1cc(Nc2ncc(Cl)c(Nc3ccccc3S(=O)(=O)C(C)C)n2)c(OC(C)C)cc1C1CCNCC1,CLB-GE,"phosphoproteomics LC-MS/MS, refers to: C10orf137 phosphorylation",,"200 nM, 60 min",baseline: untreated,log2 fold change,-1.78
CN(Cc1cnc2nc(N)nc(N)c2n1)c1ccc(C(=O)N[C@@H](CCC(=O)O)C(=O)O)cc1,cells transfected with E247Q mutant,,,"0.5 µM, 3 h, pH 5.5, 37 °C",,uptake,~22.4%
COc1cc2ncnc(Nc3ccc(Oc4ccccc4)cc3C)c2cc1OC.O=C(O)C(F)(F)F,MeWo (NF1),"cell viability, resazurin",,"3 µM, 72 h, with: trametinib 0 nM",,average fractional effect,20%
CCc1ccc(NC(=O)Nc2c[nH]c3ccccc23)cc1,RAW-ISG,western blot,,"10 µM, with: HT-DNA",baseline: vehicle,phospho-TBK1/TBK1 ratio,0.887 and 0.513 and 0.584
O=P1(C2CCCCC2)CCCCC1,HaCaT,ELISA,,"IC50, 72 h",,IL-6 level,12 ± 1.26 pg/mL
Oc1ccc(Br)cc1C=Nc1ccc2c3c(cccc13)CC2,LDR,"silenced CMV-GFP reporter derepression, qHTS",,,,efficacy,136%
COc1cc(C[C@H]2COC(=O)[C@@H]2Cc2ccc(O)c(OC)c2)ccc1O,neuroblastoma M2 (−),western blot,,IC50,baseline: untreated,PCNA level,decreased
Cc1cc(NS(=O)(=O)c2ccc(NC(=O)/C(C#N)=C/c3ccc(N4CCCCC4)cc3)cc2)no1,HCT-116,"ELISA, refers to: Bcl-2",,"IC50, 48 h",,protein level,0.095 ng/mg
CCn1cc(-c2cc(Cn3ccnc3)cc3c2CCN([C@H](c2cc(OC)ccn2)C2CC2)C3=O)c(C(F)(F)F)n1,HEC108,cell growth,,120 h,,EC50,> 30 µM
Cn1cc(Nc2nccc(-c3ccc4c(c3)CN(C3COC3)CC[C@H]4NC(=O)c3cn(C(C)(C)C)nn3)n2)cn1,human B cells,,,"100 nM, 64 h, stimulation-upregulated genes, with: anti-IgM",,number of downregulated genes,53
Cc1nn(CC(F)(F)F)cc1Nc1ncc(Br)c(NCc2ccc(S(N)(=O)=O)cc2)n1,RAW-ISG,"TBK1 phosphorylation, western blot",,"10 µM, with: poly(I:C)",baseline: DMSO,phospho-TBK1/TBK1 ratio,0.271
O=C(/C=C/C=C/C=C/C1CCCCC1)NC1=C[C@@](O)(/C=C/C=C/C=C/C(=O)NC2=C(O)CCC2=O)[C@@H]2O[C@@H]2C1=O,SHP77,"cell growth, CellTiter-Glo",,78 h,,GI50,9.49 µM
CCOC(=O)c1c(NC(=O)CC2Nc3cc(C)c(C)cc3NC2=O)sc(C)c1C (stereo not shown),LDR,"silenced CMV-GFP reporter derepression, qHTS",,,,efficacy,201%
CC[C@H](C)[C@H](NC(=O)[C@H](CCCCN)NC(=O)[C@@H](NC(=O)[C@H](CCCNC(=N)N)NC(=O)[C@@H](NC(=O)[C@@H](CCCNC(=N)N)NC(=O)[C@@H](CCCNC(=N)N)NC(=O)[C@@H](CCCNC(=N)N)NC(=O)[C@@H](CCCNC(=N)N)NC(=O)[C@@H](CCCNC(=N)N)NC(=O)[C@H](N)CCCNC(=N)N)[C@@H](C)O)[C@@H](C)O)C(=O)N[C@@H](CC(=O)O)C(=O)N[C@@H](Cc1c[nH]c2ccccc12)C(=O)NC(C)(C)C(=O)N[C@@H](CCCCN)C(=O)N[C@H](C(=O)N[C@@H](CC(C)C)C(=O)NC(C)(C)C(=O)N[C@@H](CCCCN)C(=O)NCCCCCC(=O)NCCCC[C@H](NC(=O)CCCCCNC(=O)[C@H](CCCCN)NC(=O)C(C)(C)NC(=O)[C@H](CC(C)C)NC(=O)[C@@H](NC(=O)[C@H](CCCCN)NC(=O)C(C)(C)NC(=O)[C@H](Cc1c[nH]c2ccccc12)NC(=O)[C@H](CC(=O)O)NC(=O)[C@@H](NC(=O)[C@H](CCCCN)NC(=O)[C@@H](NC(=O)[C@H](CCCNC(=N)N)NC(=O)[C@@H](NC(=O)[C@@H](CCCNC(=N)N)NC(=O)[C@@H](CCCNC(=N)N)NC(=O)[C@@H](CCCNC(=N)N)NC(=O)[C@@H](CCCNC(=N)N)NC(=O)[C@@H](CCCNC(=N)N)NC(=O)[C@H](N)CCCNC(=N)N)[C@@H](C)O)[C@@H](C)O)[C@@H](C)CC)[C@@H](C)CC)C(N)=O)[C@@H](C)CC,SK-MEL-5,annexin V/PI flow cytometry,,"10 µM, 2 h",,necrotic cells,11%
C=CC1=C(C)c2cc3[n-]c(cc4nc(cc5[n-]c(cc1n2)c(C)c5C=C)C(C)=C4CCC(=O)O)c(CCC(=O)O)c3C.[Zn+2],SH-SY5Y,"RNA-seq, refers to: TNS1 mRNA",,"5 µM, 5 h",baseline: untreated cells,fold change,1.89
CSc1nsc(/C=C/Nc2cccc(Cl)c2)c1C#N,LDR,"silenced CMV-GFP reporter derepression, qHTS",,,,efficacy,100%
CCCCCCCCCCCCCCCC(NCc1cccc(C)c1)=C1C(=O)OC(CO)C1=O (stereo not shown),G2-synchronized tsFT210 cells,flow cytometry,,"5 µM, 4 h, 32 °C, release from G2 arrest",,G2/M phase cells,25.6%
NS(=O)(=O)OC[C@@H]1C[C@@H](n2ccc3c(N[C@H]4CCc5ccccc54)ncnc32)C[C@@H]1O,HiBiT-BRD4 LgBiT cells,,,"0.1 µM, no PROTAC",,increase in BRD4 level,~40%
COc1cc2ncnc(Nc3ccc(Oc4ccccc4)c(C)c3C)c2cc1OC.Cl,MeWo (NF1),"cell viability, resazurin",,"3 µM, 72 h, with: trametinib",,average fractional effect,18%
C[C@H](NC(=O)C(=O)Nc1ccccc1C(C)(C)C)C(=O)N[C@@H](CC(=O)O)C(=O)COc1c(F)c(F)cc(F)c1F,mouse thymocytes,flow cytometry,,"10 µM, without FasL",,PI-positive cells,118% and 110% and 117%
O=S(=O)(NNc1nnc(Cl)c2ccccc12)c1ccc(F)cc1,Vero,MTT,,1000 µg/mL,,cytotoxicity,97.6%
CC(=O)c1nn(-c2ccc(Cl)cc2)/c(=N/N=C(\C)c2ccc(NC(=O)c3ccc(C)cc3)cc2)s1,MCF7,,,0.156 µM,,toxicity,0.172%
CCNc1nc(Nc2ccc(F)c(Cl)c2)c2ccccc2n1,Vero,MTT,,125 µg/mL,,cytotoxicity,47.1%
CC(=O)N[C@@H](CS)C(=O)O,HeLa,PI flow cytometry,,"concentration not given, 48 h",,S phase cells,29.6 ± 4.2%

# Some of these lines once more:
Compound,cell line,test,test system,setting,how to read,endpoint,result
O=C1c2ccncc2C(=O)c2c1[nH]c1ccccc21,PAH hPASMC,"mitochondrial fission, inhibitor",,,,minimum effective concentration,0.1 µM
NS(=O)(=O)OC[C@@H]1C[C@@H](n2ccc3c(N[C@H]4CCc5ccccc54)ncnc32)C[C@@H]1O,HiBiT-BRD4 LgBiT cells,,,"0.1 µM, no PROTAC",,increase in BRD4 level,~40%
CCCN1CCN(c2ccc3nc(-c4ccc5nc(-c6cc(OC)ccc6OC)[nH]c5c4)[nH]c3c2)CC1,SR,SRB,,"10 µM, 48 h",,growth percent,-25.6%
